Measurements collected from several papers.
Lines come from different studies, so protocols differ. ± gives the spread as reported.

`COc1cc(C(=O)c2[nH]c(N)nc2-c2cccs2)cc(OC)c1OC` gave a migration rate of 1.6 ± 0.3 µm/h (A549 cells; scratch wound healing; 100 nM).
`Cc1c(C)c(C)[c-](C)c1C.O=C1c2cccc[n+]2[Ir]([Cl])[N]1CCCCCCCCCC[P+](c1ccccc1)(c1ccccc1)c1ccccc1.[Br-]` gave a cell viability of 1.3 fold (SH-SY5Y; SRB; concentration not given, 3 h, added: MPP+ 1 mM 24 h; relative to: MPP+ alone).
For `C=CCc1ccc(O)c(-c2cc(CC=C)ccc2OCCCCCCCCCC[P+](c2ccccc2)(c2ccccc2)c2ccccc2)c1`, “mitochondrial membrane potential” read “decreased” (UACC-62; TMRE flow cytometry; concentration not given, 24 h).
Under “cells in phase”, `Cc1ccc(C(C)C)cc1.[Cl-].[Cl][Ru+].[Ru+].c1ccc(-c2cn(CCCCOc3ccccc3-c3nc4ccccc4s3)nn2)nc1` is recorded as 0.16% (MCF7; PI flow cytometry, refers to: sub-G0 phase; 4 µM, 24 h).
`CC(C)c1cccc(C(C)C)c1-n1ccn(-c2c(C(C)C)cccc2C(C)C)c1=[Se].[Cl][Ag]` has a resistance factor of 1.7 (LoVo MDR; MTT; relative to: LoVo MDR over LoVo).
For `CCc1cccc(CC)c1NC(=O)c1nn(C)c2c1CCc1cnc(Nc3ccc(N4CCN(C)CC4)cc3OC)nc1-2`, the IC50 ratio was 10.2 (HCT-116 I531M; cell proliferation; relative to: I531M over parental HCT-116).
For `FC(F)(F)c1ccnc(-c2cc(C(F)(F)F)ccn2)c1.FC(F)(F)c1ccnc(-c2cc(C(F)(F)F)ccn2)c1.[Cl-].[Cl-].[Ru+2].c1csc(-c2ccc(-c3ccc(-c4ccc(-c5nc6c7cccnc7c7ncccc7c6[nH]5)s4)s3)s2)c1`, the phototherapeutic index was 10000 (SK-MEL-28; cell viability; 100 J/cm2 light, normoxia, added: visible light 400-700 nm; relative to: dark over light EC50).
For `O=C(c1ccc2ccccc2c1)c1cn(-c2ccccc2)nc1C1=Nn2c(Cc3nnc4n3N=C(c3nn(-c5ccccc5)cc3C(=O)c3ccc5ccccc5c3)CS4)nnc2SC1`, the mRNA level was 7.6 fold (MCF7 cells; RT-PCR, refers to: Bax; IC50, 48 h; relative to: untreated).
`O=Cc1c(O)ccc2ccccc12` — result for “log2 fold change”: 3.15 (HUVEC; RNA sequencing, refers to: SLC6A9; 75 µM, 24 h; relative to: DMSO).
With `CC1(C)[C@@H](O)CC[C@]2(C)[C@H]3C(=O)C=C4[C@@H]5C[C@@](C)(C(=O)O)CC[C@]5(C)CC[C@@]4(C)[C@]3(C)CC[C@@H]12` the inhibition was 15.3% (KARPAS-299; cell growth or viability, MTT; 20 µg/mL).
For `CC(=O)N[C@@H](CCCNC(=N)N)C(=O)N[C@@H](CCCNC(=N)N)C(=O)N[C@@H](CCCNC(=N)N)C(=O)N[C@@H](CCCNC(=N)N)C(=O)N[C@@H](CCCNC(=N)N)C(=O)N[C@@H](CCCNC(=N)N)C(=O)N[C@@H](CCCNC(=N)N)C(=O)N[C@@H](CCCNC(=N)N)C(=O)N[C@@H](CCCNC(=N)N)C(=O)N[C@@H](CCCNC(=N)N)C(=O)N[C@@H](CCCNC(=N)N)C(=O)N[C@@H](CSSCCC(=O)NCC(=O)N1CCC[C@H]1C(=O)N[C@@H](Cc1c[nH]cn1)C(=O)N[C@@H](C)C(=O)N[C@H](C(=O)N[C@@H](C)C(=O)N[C@H](C(=O)N[C@@H](C)C(=O)N[C@@H](C)C(=O)NCC(=O)N1CCC[C@H]1C(=O)N[C@@H](Cc1c[nH]cn1)C(=O)N[C@@H](CCC(=O)O)C(=O)N[C@@H](CCC(=O)O)C(N)=O)C(C)C)C(C)C)C(N)=O`, “NFAT nuclear translocation” read “no effect” (HeLa, GFP-NFAT stably transfected; live-cell confocal microscopy; 500 nM, 2 h, added: ionomycin, 10 min).
For `CCOC(=O)c1c(-c2ccc(C)cc2)oc2nc(N3CC[C@H](F)C3)ccc12`, the EC50 was over 50 µM (CRL8155; cell growth or viability; 48 h).
`CC[C@H](C)[C@@H]1NC(=O)[C@H](C)NC(=O)[C@H]([C@@H](C)CC)NC(=O)[C@H](CCC(N)=O)NC(=O)[C@H](C)NC(=O)[C@H](CCCNC(=N)N)NC(=O)[C@H](C(C)C)NC(=O)[C@H](CC(C)C)NC(=O)[C@H](CCC(=O)O)NC(=O)[C@H](CCCNC(=N)N)NC(=O)CNC(=O)[C@@H](NC(=O)[C@H](CC(C)C)NC(=O)[C@H](CCCCN)NC(=O)[C@@H](NC(=O)[C@@H](NC(=O)[C@H](CCC(=O)O)NC(=O)[C@H](CCC(=O)O)NC(=O)[C@H](CCSC)NC(=O)[C@H](Cc2c[nH]c3ccccc23)NC(=O)[C@H](CO)NC(=O)[C@@H](N)CC(=O)O)C(C)C)[C@@H](C)CC)CSSC[C@@H]2NC(=O)[C@@H](NC(=O)[C@H](CCCCN)NC(=O)[C@H](CC(N)=O)NC(=O)[C@H](C)NC(=O)[C@H](CC(C)C)NC(=O)[C@H](C)NC(=O)[C@H](CO)NC(=O)[C@H](Cc3ccc(O)cc3)NC(=O)[C@H](CC(C)C)NC(=O)[C@@H](N)CCC(N)=O)C[Se][Se]C[C@H](NC(=O)CNC(=O)[C@H](C(C)C)NC(=O)[C@H](Cc3c[nH]cn3)NC2=O)C(=O)N[C@@H]([C@@H](C)O)C(=O)N[C@@H](CCCCN)C(=O)N[C@@H](CCCNC(=N)N)C(=O)N[C@@H](CO)C(=O)N[C@@H](CC(C)C)C(=O)N[C@@H](C)C(=O)N[C@@H](CCCNC(=N)N)C(=O)N[C@@H](Cc2ccccc2)C(=O)N[C@H](C(=O)O)CSSC[C@@H](C(=O)NCC(=O)N[C@@H](CCSC)C(=O)N[C@@H](CO)C(=O)N[C@H](C(=O)N[C@@H](Cc2c[nH]c3ccccc23)C(=O)N[C@@H](CO)C(=O)O)[C@@H](C)O)NC1=O` — result for mRNA level: “decreased” (human endometriotic stromal cells; qPCR, refers to: PAI-1; 33 ng/mL, 8 h; relative to: untreated).
`Cc1nn(C)c(O)c1-c1nc2cc(Cl)c(Cl)cc2[nH]c1=O` gave an apoptotic cells of about 40% (TF-1; annexin V flow cytometry; concentration not given, 72 h, treated at IC50).
Under AKT phosphorylation, `CN1CCN(c2ccc(Nc3ncc(Cl)c(Nc4ccccc4P(C)(C)=O)n3)cc2Br)CC1` is recorded as “inhibited” (PC9-OR; western blot; concentration not given).
With `COc1cc(CNC(=O)C[C@H](C)CCC=C(C)C)ccc1OCc1cn(-c2ccc(Br)cc2)nn1` the growth percent was 60.2% (MCF7 breast cancer cells; SRB; 10 µM, 48 h).
Under “number of proteins downregulated”, `O=C1c2c(O)cc(O)cc2-c2c(-c3ccc(O)cc3)oc3cc(O)cc1c23` is recorded as 92 (MCF7 cells; label-free MS proteomics; 10 µM).
With `CCC(=C(c1ccc(Cl)cc1)c1ccc(OCCCN(C)C)cc1)c1ccc(OC)cc1` the GI50 was 0.98 µM (SR; cell growth or viability).
`O=C(OCc1cccc(O)c1O)c1ccc(O)c(CO)c1`: superoxide production “inhibited” (mouse aortic smooth muscle cells; lucigenin chemiluminescence; dose not given, added: angiotensin II 24 h).
With `Cc1ccc(-c2nc3ccc(C)cn3c2CN2CCN(c3ccc(F)cc3)CC2)cc1` the EC50 was over 50 µM (CRL8155; cell growth or viability; 48 h).
For `CO[C@@H]1[C@@H](O[C@@H]2O[C@H](C)[C@@H](O[C@H]3C[C@@](C)(O)[C@@H](OC(=O)CC(C)C)[C@H](C)O3)[C@H](N(C)C)[C@H]2O)[C@@H](CC=O)C[C@@H](C)[C@@H](O[C@H]2CC[C@H](N(C)C)[C@@H](C)O2)/C=C/C=C/C[C@@H](C)OC(=O)C[C@H]1O`, the selectivity index was 2.29 (GES-1 and HGC-27; cell growth, CCK-8; 72 h; relative to: IC50 GES-1 over HGC-27).
Under TNF production, `NC(=O)[C@@H](O)C[C@H]1CCc2sc3ncnc(O[C@H]4CC[C@H](N5CCOCC5)CC4)c3c21` is recorded as “inhibited” (human white blood cells; concentration not given, 1 h pretreatment, added: LPS 1 µg/mL or CpG 0.5 µM).
For `COc1ccc([C@@H]2CC(=O)c3c(O)cc(O[C@@H]4O[C@H](CO[C@@H]5O[C@@H](C)[C@H](O)[C@@H](O)[C@H]5O)[C@@H](O[C@H]5O[C@H](CO)[C@@H](O)[C@H](O)[C@H]5O)[C@H](O)[C@H]4O)cc3O2)cc1O`, the viability was 63.9% (A549; cell growth or viability, MTS; 50 µg/mL, 24 h).
For `CN(C)c1cc2ccccc2c(N)n1`, mRNA stability read “no effect” (LX-2; actinomycin D chase, qPCR, refers to: VEGFA; concentration not given, 6 h pretreatment).
`COc1cc(CNC(=O)C[C@H](C)CCC=C(C)C)ccc1O` gave a growth percent of 97.2% (MCF7 breast cancer cells; SRB; 10 µM, 48 h).
For `CCn1nc2c(c1Nc1nc(-c3ccc(-n4cnc(C)c4)c(OC)n3)cs1)CCCC2`, the Aβ38 level was about 1.5 fold (CHO APPwt/PS1 M146L; concentration not given; relative to: untreated).
Under “cells in G1 phase”, `C=C(C)[C@@H]1CC[C@]2(C(=O)OCO/N=[N+](\[O-])N3CCCC3)CC[C@]3(C)[C@H](CC[C@@H]4[C@@]5(C)CC[C@H](OC(C)=O)C(C)(C)[C@@H]5CC[C@]43C)[C@@H]12` is recorded as 52.1% (B16-F10; PI flow cytometry; 1.0 µM).
`O=C1CCC(N2C(=O)c3ccc(N4CCC(C(=O)N5CCC(CCN6CCC(CNC(=O)c7cccc(-c8noc(C(F)(F)F)n8)c7)(c7nc(-c8ccccc8)cs7)CC6)CC5)CC4)cc3C2=O)C(=O)N1` (stereo not drawn) has a sub-G0 cells of 80.6% (DHL6; flow cytometry; 3 µM, 24 h).
For `CCN(CC)CC(=O)N1CCN(c2nc(NCc3nc4cc(Cl)c(Cl)cc4[nH]3)c3ncn(CC)c3n2)CC1`, “ATM and RAD51 protein level” read “decreased” (MDA-MB-231; western blot; concentration not given, 12 or 24 h).
`COc1ccc(CC2COC(=O)C2Cc2ccc3c(c2)OCO3)cc1OC` (mixture of isomers) — result for viability: “decreased” (A2780cis; MTT; concentration not given, 72 h).

For quick reference, copied from above:
With `CC1(C)[C@@H](O)CC[C@]2(C)[C@H]3C(=O)C=C4[C@@H]5C[C@@](C)(C(=O)O)CC[C@]5(C)CC[C@@]4(C)[C@]3(C)CC[C@@H]12` the inhibition was 15.3% (KARPAS-299; cell growth or viability, MTT; 20 µg/mL).
For `CCOC(=O)c1c(-c2ccc(C)cc2)oc2nc(N3CC[C@H](F)C3)ccc12`, the EC50 was over 50 µM (CRL8155; cell growth or viability; 48 h).
